# Results of several laboratories.
# A part holds a random share of what one study measured.

# Block 1
# Target: Interferon regulatory factor 5, full length, phosphomimetic (IRF5, Homo sapiens, UniProt Q13568-2, residues 1-514, K96S/S451D/S453D/S456D/S462D)
# Technique: protein-binding microarray
# Molecule type: double-stranded DNA, one strand shown
# Sample: in vitro
# Concentration: 250 nM
# Notes: 60-bp whole probe
# With: salmon DNA 0.4 mg/ml
# Relative to: random background probes
# Reading: higher = stronger binding
Oligonucleotide,log fluorescence [z-score]
GCCTAGCACGACGGTTTCGGGACTGGGGATGTGCTAGTCTTGATTCGCTTGACGCTGCTG,4.72
GCCTAGCACCTTCCCCTCTCATTCCAATTGTGCTAGGTCTTGATTCGCTTGACGCTGCTG,0.299
GCCTAGCACGACGGTTTCCACTTTCGGGACGTGCTAGTCTTGATTCGCTTGACGCTGCTG,6.3
GCCTAGCACTCAATTATGAGTCTTGAACTGTGCTAGGTCTTGATTCGCTTGACGCTGCTG,0.0697

# Block 2
# Target: Histone acetyltransferase KAT6A, winged helix 1, GST fusion (KAT6A, Homo sapiens, UniProt Q92794, residues 1-85)
# Technique: protein binding microarray
# Molecule type: double-stranded DNA, one strand shown
# Sample: in vitro
# Concentration: not given
# Notes: 8-mer, flanks averaged, mean of 2 arrays, mostly near background
# Relative to: not given
# Reading: higher = stronger binding
# Target sequence (chain): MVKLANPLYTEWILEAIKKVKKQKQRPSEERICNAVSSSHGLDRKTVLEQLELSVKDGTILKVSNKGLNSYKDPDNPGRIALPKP
Oligonucleotide,E-score
CATATTCA,-0.176
TAAATGAA,-0.252
CCAAAAGC,0.0529
CGTGCGTA,0.27

# Block 3
# Target: Sal-like protein 4, full length isoform A (SALL4, Homo sapiens, UniProt Q9UJQ4, residues 1-1053)
# Chain of UniProt Q9UJQ4 (whole entry, looked up): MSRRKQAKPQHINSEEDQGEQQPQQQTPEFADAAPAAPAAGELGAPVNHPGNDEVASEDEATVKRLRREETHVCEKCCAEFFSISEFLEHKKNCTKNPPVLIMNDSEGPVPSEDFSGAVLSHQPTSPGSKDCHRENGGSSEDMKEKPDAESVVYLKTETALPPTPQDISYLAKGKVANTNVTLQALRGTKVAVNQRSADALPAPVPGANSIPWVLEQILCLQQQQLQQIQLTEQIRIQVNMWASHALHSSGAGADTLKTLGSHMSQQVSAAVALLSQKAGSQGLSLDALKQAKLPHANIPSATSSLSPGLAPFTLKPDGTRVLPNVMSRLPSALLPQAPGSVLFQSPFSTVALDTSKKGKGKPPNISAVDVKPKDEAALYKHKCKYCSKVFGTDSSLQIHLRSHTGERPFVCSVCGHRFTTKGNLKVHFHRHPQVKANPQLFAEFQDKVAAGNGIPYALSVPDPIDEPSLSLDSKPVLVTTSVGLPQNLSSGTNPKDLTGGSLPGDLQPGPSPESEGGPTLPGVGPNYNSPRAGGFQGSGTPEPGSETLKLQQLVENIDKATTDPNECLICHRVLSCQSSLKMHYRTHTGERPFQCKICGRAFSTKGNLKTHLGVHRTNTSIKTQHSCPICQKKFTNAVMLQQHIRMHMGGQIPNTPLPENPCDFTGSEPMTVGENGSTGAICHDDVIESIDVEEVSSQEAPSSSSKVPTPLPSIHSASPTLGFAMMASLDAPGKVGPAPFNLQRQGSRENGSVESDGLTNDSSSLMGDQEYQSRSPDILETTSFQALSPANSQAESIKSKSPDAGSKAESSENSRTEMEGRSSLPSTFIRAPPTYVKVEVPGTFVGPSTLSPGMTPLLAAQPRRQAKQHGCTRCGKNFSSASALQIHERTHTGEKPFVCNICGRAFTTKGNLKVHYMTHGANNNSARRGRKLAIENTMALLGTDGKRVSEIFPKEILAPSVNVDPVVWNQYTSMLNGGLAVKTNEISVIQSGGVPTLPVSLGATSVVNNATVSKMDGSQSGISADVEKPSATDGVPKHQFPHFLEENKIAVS
# Technique: universal PBM
# Molecule type: double-stranded DNA, one strand shown
# Sample: in vitro
# Concentration: 600 nM
# Notes: 8-mer, flanks averaged, mean of replicates
# Reading: higher = stronger binding
Oligonucleotide,E-score
AGCGTGTG,-0.0182
AACCGAAG,0.0494
ATCTAGAC,-0.0194
ACTCGGAA,-0.0433

# Mixed results
Molecule,target,test,system,conditions,how to read,measurement,value
"PhoQ, residues 284 288 289 292 302 303 SLANKL","PhoP, residues 12 14 15 18 19 IQSYL (Escherichia coli, UniProt P23836)","Sort-seq, item: YFP reporter",E. coli,"PhoQ-PhoP variant library, with: 10 µM Mg2+","relative to: high Mg2+ state, higher = stronger signaling",fold induction,12.8

# Excerpt of the above (block 2):
Oligonucleotide,E-score
CCAAAAGC,0.0529
